Published values pooled from the literature.
Numbered parts are unrelated; each lists some results of a single study.
Sequence of UniProt O75716 (whole entry, looked up): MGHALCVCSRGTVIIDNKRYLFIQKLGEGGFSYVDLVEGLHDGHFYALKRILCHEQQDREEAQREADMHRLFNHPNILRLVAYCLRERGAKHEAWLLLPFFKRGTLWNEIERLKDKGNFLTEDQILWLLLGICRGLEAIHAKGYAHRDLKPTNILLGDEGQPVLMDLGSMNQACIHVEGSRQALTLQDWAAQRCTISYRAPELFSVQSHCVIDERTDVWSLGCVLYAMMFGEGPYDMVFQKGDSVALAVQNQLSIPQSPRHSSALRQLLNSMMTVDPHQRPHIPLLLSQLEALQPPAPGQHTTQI
Sequence of UniProt P36894 (whole entry, looked up): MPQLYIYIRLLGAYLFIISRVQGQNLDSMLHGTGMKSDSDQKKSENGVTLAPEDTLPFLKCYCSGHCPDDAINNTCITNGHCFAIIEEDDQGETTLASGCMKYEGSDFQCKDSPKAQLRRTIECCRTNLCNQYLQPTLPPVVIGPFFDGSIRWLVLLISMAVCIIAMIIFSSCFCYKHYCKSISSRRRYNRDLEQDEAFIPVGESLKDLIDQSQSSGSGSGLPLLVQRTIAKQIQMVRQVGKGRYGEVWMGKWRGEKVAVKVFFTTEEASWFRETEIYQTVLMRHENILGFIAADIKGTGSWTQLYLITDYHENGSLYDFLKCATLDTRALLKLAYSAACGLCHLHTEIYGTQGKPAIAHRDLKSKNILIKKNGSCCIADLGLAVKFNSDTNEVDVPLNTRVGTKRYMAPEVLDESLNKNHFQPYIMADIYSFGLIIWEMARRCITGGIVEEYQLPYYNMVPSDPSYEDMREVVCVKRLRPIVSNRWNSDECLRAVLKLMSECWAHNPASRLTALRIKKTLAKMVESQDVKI
Sequence of UniProt P22455 (whole entry, looked up): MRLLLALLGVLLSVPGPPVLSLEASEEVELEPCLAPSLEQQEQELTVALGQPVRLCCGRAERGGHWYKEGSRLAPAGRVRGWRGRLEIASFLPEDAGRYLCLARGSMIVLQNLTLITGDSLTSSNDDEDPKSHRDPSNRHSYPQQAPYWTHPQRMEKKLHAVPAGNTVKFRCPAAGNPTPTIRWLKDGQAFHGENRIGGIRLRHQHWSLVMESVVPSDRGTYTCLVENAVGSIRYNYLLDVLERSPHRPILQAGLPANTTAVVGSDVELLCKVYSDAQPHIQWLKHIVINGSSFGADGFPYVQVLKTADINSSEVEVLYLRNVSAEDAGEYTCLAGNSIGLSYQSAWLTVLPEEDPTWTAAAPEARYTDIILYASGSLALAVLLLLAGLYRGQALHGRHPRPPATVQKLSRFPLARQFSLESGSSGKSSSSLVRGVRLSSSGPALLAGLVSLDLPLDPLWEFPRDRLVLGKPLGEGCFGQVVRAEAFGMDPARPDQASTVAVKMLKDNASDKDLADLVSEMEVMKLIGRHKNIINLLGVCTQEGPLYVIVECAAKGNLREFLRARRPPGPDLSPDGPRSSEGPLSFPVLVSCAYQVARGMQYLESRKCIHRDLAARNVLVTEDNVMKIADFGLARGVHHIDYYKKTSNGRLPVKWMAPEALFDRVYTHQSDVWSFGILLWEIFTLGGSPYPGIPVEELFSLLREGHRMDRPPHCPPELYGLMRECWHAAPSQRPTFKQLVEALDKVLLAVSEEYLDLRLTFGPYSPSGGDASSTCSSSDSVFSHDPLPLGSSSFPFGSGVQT
Sequence of UniProt Q86YV6 (whole entry, looked up): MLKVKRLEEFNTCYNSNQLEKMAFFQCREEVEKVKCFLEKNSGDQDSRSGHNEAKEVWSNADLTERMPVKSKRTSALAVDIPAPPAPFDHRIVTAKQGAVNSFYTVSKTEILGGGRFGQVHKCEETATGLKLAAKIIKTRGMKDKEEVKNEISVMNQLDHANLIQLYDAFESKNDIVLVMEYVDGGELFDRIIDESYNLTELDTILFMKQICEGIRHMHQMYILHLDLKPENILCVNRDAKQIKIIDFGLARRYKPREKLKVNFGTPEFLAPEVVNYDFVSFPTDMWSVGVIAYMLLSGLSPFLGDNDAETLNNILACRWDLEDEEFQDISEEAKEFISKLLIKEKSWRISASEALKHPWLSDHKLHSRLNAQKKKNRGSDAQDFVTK
Sequence of UniProt Q9BZL6 (whole entry, looked up): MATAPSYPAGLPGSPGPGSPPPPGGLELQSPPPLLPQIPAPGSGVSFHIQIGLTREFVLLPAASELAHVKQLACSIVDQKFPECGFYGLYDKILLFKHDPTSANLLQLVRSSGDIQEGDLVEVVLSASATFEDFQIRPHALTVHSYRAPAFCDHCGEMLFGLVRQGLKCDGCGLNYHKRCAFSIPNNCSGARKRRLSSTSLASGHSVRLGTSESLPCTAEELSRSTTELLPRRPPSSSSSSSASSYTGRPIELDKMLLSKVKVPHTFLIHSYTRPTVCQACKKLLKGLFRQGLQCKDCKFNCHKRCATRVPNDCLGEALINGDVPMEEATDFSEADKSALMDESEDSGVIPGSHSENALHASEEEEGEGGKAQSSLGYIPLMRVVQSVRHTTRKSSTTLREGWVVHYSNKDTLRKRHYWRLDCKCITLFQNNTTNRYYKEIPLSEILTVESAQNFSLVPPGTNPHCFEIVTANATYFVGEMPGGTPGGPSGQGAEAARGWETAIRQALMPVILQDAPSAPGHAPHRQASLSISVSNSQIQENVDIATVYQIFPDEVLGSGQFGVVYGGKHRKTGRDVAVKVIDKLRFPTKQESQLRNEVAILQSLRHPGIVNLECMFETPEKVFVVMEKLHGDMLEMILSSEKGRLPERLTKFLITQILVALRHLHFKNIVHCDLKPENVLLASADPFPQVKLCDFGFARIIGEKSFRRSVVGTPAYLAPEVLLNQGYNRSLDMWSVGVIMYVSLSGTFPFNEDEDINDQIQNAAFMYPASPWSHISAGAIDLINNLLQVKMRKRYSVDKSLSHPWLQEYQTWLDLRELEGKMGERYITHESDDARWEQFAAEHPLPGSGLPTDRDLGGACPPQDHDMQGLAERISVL
Sequence of UniProt P57058 (whole entry, looked up): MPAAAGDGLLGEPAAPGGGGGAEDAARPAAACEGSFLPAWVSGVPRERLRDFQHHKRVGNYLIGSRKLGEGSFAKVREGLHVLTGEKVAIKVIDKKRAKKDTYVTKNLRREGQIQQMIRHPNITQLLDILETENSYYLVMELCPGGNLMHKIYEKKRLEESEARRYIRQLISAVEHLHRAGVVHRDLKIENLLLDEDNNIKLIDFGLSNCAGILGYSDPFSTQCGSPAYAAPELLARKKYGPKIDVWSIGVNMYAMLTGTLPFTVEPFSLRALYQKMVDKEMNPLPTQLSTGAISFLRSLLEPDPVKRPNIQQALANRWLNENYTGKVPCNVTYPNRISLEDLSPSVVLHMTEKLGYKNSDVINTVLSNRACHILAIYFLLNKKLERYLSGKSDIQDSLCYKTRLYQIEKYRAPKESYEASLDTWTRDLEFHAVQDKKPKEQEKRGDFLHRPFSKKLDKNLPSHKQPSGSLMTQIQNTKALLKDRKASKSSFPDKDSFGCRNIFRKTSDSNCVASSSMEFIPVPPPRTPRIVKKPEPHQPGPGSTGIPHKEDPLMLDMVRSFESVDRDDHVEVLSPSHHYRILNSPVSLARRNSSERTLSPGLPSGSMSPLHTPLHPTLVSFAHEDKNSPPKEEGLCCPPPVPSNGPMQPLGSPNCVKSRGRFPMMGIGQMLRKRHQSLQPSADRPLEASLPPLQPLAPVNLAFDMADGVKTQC
Sequence of UniProt Q96PN8 (whole entry, looked up): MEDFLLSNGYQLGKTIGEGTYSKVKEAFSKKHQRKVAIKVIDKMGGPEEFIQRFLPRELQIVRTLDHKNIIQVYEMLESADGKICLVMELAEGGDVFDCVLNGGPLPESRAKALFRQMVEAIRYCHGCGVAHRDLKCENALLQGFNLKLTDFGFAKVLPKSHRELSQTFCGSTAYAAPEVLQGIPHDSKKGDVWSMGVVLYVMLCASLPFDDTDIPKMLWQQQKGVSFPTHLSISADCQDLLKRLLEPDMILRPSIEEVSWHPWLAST

Block 1 — cell line: mouse MPNST tumor cells; method: high-content nuclear imaging; item: cell number; concentration: 10 µM; time: 12 h; notes: mean of 2 replicates; reference: plate mean; direction: higher = more cells
| Compound | nuclei count |
| --- | --- |
| O=C1C(=Cc2cccnc2)C(=O)c2ccccc21 | 0.497 z-score |
| COc1ccc(COc2ccc(CC#N)cc2)cc1 | 2.4 z-score |
| C1N2CN3CN1CN(C2)C3 | 0.152 z-score |
| CC(C)NC[C@H](O)COc1cccc2ccccc12 | 2.71 z-score |
| CC(CN1c2ccccc2Sc2ccccc21)N(C)C (stereo not shown) | 2.27 z-score |
| Cc1ncsc1-c1ccc(CNC(=O)[C@@H]2C[C@@H](O)CN2C(=O)[C@@H](NC(=O)C2(C#N)CC2)C(C)(C)C)cc1 | 1.48 z-score |
| C[C@]12C=CC(=O)C=C1CC[C@H]1[C@@H]3C[C@@H](O)[C@](O)(C(=O)CO)[C@@]3(C)C[C@H](O)[C@@]12F | 5.85 z-score |
| CC[N+](CC)(CC(=O)Nc1c(C)cccc1C)Cc1ccccc1 | 0.916 z-score |

Block 2 — method: competition with immobilised ligand; concentration: 1 µM
Structure (SMILES): CO[C@@H](C)c1c(Nc2ccc([C@@H](N(C)C(=O)C3CCS(=O)(=O)CC3)C(F)(F)F)cc2)cnc2cc(Cl)nn12
| target | effect on | remaining binding |
| --- | --- | --- |
| Phosphatidylinositol 3-kinase catalytic subunit type 3 (PIK3C3, Homo sapiens, UniProt Q8NEB9) | cell-free assay | 100% |
| Bone morphogenetic protein receptor type-1A (BMPR1A, Homo sapiens, UniProt P36894) | binding | 100% |
| Serine/threonine-protein kinase B-raf (BRAF, Homo sapiens, UniProt P15056, V600E) | cell-free assay | 85% |
| Myosin light chain kinase family member 4 (MYLK4, Homo sapiens, UniProt Q86YV6) | cell-free assay | 83% |
| Serine/threonine-protein kinase 16 (STK16, Homo sapiens, UniProt O75716) | cell-free assay | 100% |
| Fibroblast growth factor receptor 4 (FGFR4, Homo sapiens, UniProt P22455) | cell-free assay | 92% |
| Testis-specific serine/threonine-protein kinase 3 (TSSK3, Homo sapiens, UniProt Q96PN8) | cell-free assay | 79% |
| Serine/threonine-protein kinase D2 (PRKD2, Homo sapiens, UniProt Q9BZL6) | cell-free assay | 86% |
| Hormonally up-regulated neu tumor-associated kinase (HUNK, Homo sapiens, UniProt P57058) | cell-free assay | 100% |
| Tyrosine-protein kinase ABL1, non-phosphorylated (ABL1, Homo sapiens, UniProt P00519, F317L) | cell-free assay | 100% |
| eIF-2-alpha kinase GCN2, C-terminal kinase domain (EIF2AK4, Homo sapiens, UniProt Q9P2K8, S808G) | cell-free assay | 68% |
| Dual specificity mitogen-activated protein kinase kinase 1 (MAP2K1, Homo sapiens, UniProt Q02750) | cell-free assay | 100% |
| Mast/stem cell growth factor receptor Kit (KIT, Homo sapiens, UniProt P10721, D816H) | cell-free assay | 100% |
| Receptor-interacting serine/threonine-protein kinase 1 (RIPK1, Homo sapiens, UniProt Q13546) | cell-free assay | 84% |
| cGMP-dependent protein kinase 1 (PRKG1, Homo sapiens, UniProt Q13976) | cell-free assay | 92% |
| Insulin receptor (INSR, Homo sapiens, UniProt P06213) | cell-free assay | 95% |

Block 3 — effect on: enzyme activity; action: inhibitor; concentration: 0.5 µM; reference: control
Target: Ephrin type-A receptor 1 (EPHA1, Homo sapiens, UniProt P21709)
Sequence of UniProt P21709 (whole entry, looked up): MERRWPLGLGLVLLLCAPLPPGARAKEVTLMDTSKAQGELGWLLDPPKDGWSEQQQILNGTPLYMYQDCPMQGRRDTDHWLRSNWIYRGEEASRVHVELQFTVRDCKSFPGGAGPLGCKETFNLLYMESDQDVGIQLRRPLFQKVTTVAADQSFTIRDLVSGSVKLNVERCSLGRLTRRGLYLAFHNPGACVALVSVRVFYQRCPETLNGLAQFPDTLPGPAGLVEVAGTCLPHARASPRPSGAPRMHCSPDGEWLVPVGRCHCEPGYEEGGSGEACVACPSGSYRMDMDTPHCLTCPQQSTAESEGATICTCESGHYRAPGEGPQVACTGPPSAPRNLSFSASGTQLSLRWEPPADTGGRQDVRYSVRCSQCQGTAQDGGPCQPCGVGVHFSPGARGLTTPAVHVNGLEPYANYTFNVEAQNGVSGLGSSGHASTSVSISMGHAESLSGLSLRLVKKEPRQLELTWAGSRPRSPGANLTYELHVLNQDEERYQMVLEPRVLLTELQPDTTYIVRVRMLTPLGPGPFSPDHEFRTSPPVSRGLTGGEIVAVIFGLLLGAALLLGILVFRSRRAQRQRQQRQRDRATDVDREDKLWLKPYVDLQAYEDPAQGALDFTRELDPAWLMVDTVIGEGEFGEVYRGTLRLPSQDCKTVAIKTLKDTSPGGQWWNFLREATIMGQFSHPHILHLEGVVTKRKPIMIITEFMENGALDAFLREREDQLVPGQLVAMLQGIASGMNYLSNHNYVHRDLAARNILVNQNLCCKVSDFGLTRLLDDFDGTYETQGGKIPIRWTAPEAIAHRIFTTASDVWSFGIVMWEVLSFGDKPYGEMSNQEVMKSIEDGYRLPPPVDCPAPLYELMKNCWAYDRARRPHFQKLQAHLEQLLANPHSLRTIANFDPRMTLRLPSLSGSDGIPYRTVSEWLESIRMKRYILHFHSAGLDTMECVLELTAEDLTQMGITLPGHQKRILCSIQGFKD
| SMILES | remaining activity |
| --- | --- |
| COc1ccc2c(c1)c(C1=C(c3c[nH]c4ccccc34)C(=O)NC1=O)cn2CCCN(C)C | 76.2% |
| O=C(c1cc2cc(O)ccc2[nH]1)c1cc2cc(O)ccc2[nH]1 | 81.1% |
| CCCCc1c(-c2ccc(OC)cc2)[nH]c2nccnc12 | 67.9% |
| Cc1cc(Nc2cc(N3CCN(C)CC3)nc(Sc3ccc(NC(=O)C4CC4)cc3)n2)[nH]n1 | 78.1% |
| c1ccc(-c2n[nH]c3c2oc2ccccc23)cc1 | 78.6% |
| COc1cccc(-c2cc(=O)c3ccccc3o2)c1N | 99.7% |
| CCCNC(=O)Nc1ccc(Oc2ncnc3cc(OC)c(OC)cc23)cc1Cl | 96.9% |
| N#Cc1cnc2cnc(NCc3cccnc3)cc2c1Nc1ccc(F)c(Cl)c1 | 94.5% |
| CN(C)S(=O)(=O)c1ccc2c(c1)/C(=C/c1cc3c([nH]1)CCCC3)C(=O)N2 | 94.5% |
| O=c1cc(N2CCOCC2)oc2c(-c3ccccc3)cccc12 | 101% |
| O=Nc1c(-c2c(O)[nH]c3cc(Br)ccc23)[nH]c2ccccc12 | 98.5% |
| CN1CCN(c2ccc3nc(-c4c(N)c5c(F)cccc5[nH]c4=O)[nH]c3c2)CC1 | 90.6% |
| COc1ccc(COc2ccc(Cc3cnc(N)nc3N)cc2OC)cc1 | 85.8% |
| O=C1Cc2c([nH]c3ccc(Br)cc23)-c2ccccc2N1 | 100% |
| O=C1NC(=O)c2c1c1c3ccccc3[nH]c1n1cncc21 | 72.4% |
| O=C1Nc2ccc(Br)cc2/C1=C/c1cc2c([nH]1)CCCC2 | 93.1% |
| O=C1NC(=O)c2c1c1c3ccccc3[nH]c1c1[nH]c3cc(Br)ccc3c21 | 98.1% |
| Cc1ccc(S(=O)(=O)/C=C/C#N)cc1 | 93.2% |
| O=C1Nc2ccccc2/C1=C\c1c(Cl)[nH]c2ccccc12 | 98.5% |

Block 4 — method: phase 2a trial; species: idiopathic pulmonary fibrosis patients
SMILES: CC(C)n1cnc(-c2ccc(F)cc2)c1-c1ncc(C(=O)Nc2ccc(N3CCN(C)CC3)cc2)[nH]1
| dose | notes | patients with eosinophilia [%] |
| --- | --- | --- |
| 60 mg once daily | adverse event grade 2 | 0 |
| 60 mg once daily | adverse event grade 5 | 0 |
| dose not given | adverse event grade 4, all dose arms pooled | 0 |
| dose not given | adverse event grade 5, all dose arms pooled | 0 |
| 30 mg once daily | adverse event grade 1 | 0 |
| 60 mg once daily | adverse event grade 3 | 0 |
| dose not given | adverse event grade 2, all dose arms pooled | 0 |
| dose not given | adverse event grade 3, all dose arms pooled | 0 |
| 30 mg once daily | adverse event grade 4 | 0 |

For quick reference, copied from above (block 2):
| target | effect on | remaining binding |
| --- | --- | --- |
| Myosin light chain kinase family member 4 (MYLK4, Homo sapiens, UniProt Q86YV6) | cell-free assay | 83% |
| Phosphatidylinositol 3-kinase catalytic subunit type 3 (PIK3C3, Homo sapiens, UniProt Q8NEB9) | cell-free assay | 100% |
| Hormonally up-regulated neu tumor-associated kinase (HUNK, Homo sapiens, UniProt P57058) | cell-free assay | 100% |
| Serine/threonine-protein kinase B-raf (BRAF, Homo sapiens, UniProt P15056, V600E) | cell-free assay | 85% |
| Serine/threonine-protein kinase 16 (STK16, Homo sapiens, UniProt O75716) | cell-free assay | 100% |
| Receptor-interacting serine/threonine-protein kinase 1 (RIPK1, Homo sapiens, UniProt Q13546) | cell-free assay | 84% |
| Testis-specific serine/threonine-protein kinase 3 (TSSK3, Homo sapiens, UniProt Q96PN8) | cell-free assay | 79% |
| Bone morphogenetic protein receptor type-1A (BMPR1A, Homo sapiens, UniProt P36894) | binding | 100% |
